Measurements from different studies.
Lines come from different studies, so protocols differ. ± gives the spread as reported.
Cell line: HeLa

| SMILES | test | setting | how to read | measurement | result |
| --- | --- | --- | --- | --- | --- |
| N=C(N)NCCC[C@@H]1NC(=O)[C@H](CCCNC(=N)N)NC(=O)[C@H](CCCNC(=N)N)NC(=O)[C@H](Cc2ccc3ccccc3c2)NC(=O)[C@H](Cc2ccccc2)NC(=O)[C@H](CCC(N)=O)NC(=O)[C@H](CCCNC(=N)N)NC1=O | flow cytometry, item: Rho-labelled peptide | 5 µM, 2 h, 37 °C, miniPEG linker | relative to: compound set to 100% | total cellular uptake | 100% |
| Cc1ccc(S(=O)(=O)Oc2ccc(NC(=O)C3(C)c4ccccc4-c4ccccc43)cc2)cc1 | cell growth or viability, MTT | 100 µM, 24 h |  | inhibition | 33.8% |
| CCn1c2ccccc2c2cc(C3CC(c4cc5ccccc5oc4=O)=NN3C(N)=O)ccc21 (stereo not drawn) | propidium iodide staining | IC50, 24 h |  | cells in G0/G1 phase | 76.8% |
| CC[C@H](C)[C@H](NC(=O)[C@H](Cc1c[nH]cn1)NC(=O)[C@H](Cc1ccccc1)NC(=O)[C@H]1CSCc2ccccc2CSC[C@@H](NC(=O)[C@@H](NC(=O)Cc2ccccc2)C(C)C)C(=O)N[C@@H](CC(N)=O)C(=O)N[C@@H](C)C(=O)N1)C(=O)N[C@@H](Cc1c[nH]c2ccccc12)C(=O)N[C@@H](Cc1c[nH]cn1)C(N)=O | immunoblot p62 and LC3-II | concentration not given, 2 h, acidified Opti-MEM |  | autophagy induction | inactive |
| CCCc1ccc(S(=O)(=O)Oc2ccc(NC(=O)c3ccccc3)cc2)cc1 | cell growth or viability, MTT | 100 µM, 24 h |  | inhibition | 38.7% |
| COc1cc(-c2cn(-c3ccc(C(C)(C)C)cc3)nn2)[nH]c1/C=N/C12CC3CC(CC(C3)C1)C2.Cl |  | 3.9 µM, 60 and 120 min, together with: syrosingopine 10 µM pretreatment | relative to: syrosingopine alone | intracellular lactate decrease | ~50% |
| CC(=NN=C(N)[S-])C(C)=NN=C(N)[S-].O=[N+]([O-])[O-].[Co+3].c1c[nH]cn1.c1c[nH]cn1 | cell growth or viability, MTT |  |  | IC50 | > 500 µM |
| S=C(NN=Cc1ccc(Cl)s1)Nc1ccccc1 | altered cell morphology, microscopy | confluent cultures |  | cytotoxic concentration | 100 µM |
| CC1(C(=O)Nc2ccc(OS(C)(=O)=O)cc2)c2ccccc2-c2ccccc21 | cell growth or viability, MTT | 100 µM, 24 h |  | inhibition | > 50% |
| CC(C)[C@@H]1CN(c2nc(Nc3cc(C(C)(C)C)[nH]n3)c3cc[nH]c3n2)CCN1 | live-cell imaging | 10 µM, 1 h, 20 min after furrow ingression |  | GFP-spastin puncta count | 44 ± 9 |
| Cc1ccc(C(=O)Nc2ccc(OS(=O)(=O)c3ccc(C)cc3)cc2)cc1 | cell growth or viability, MTT | 100 µM, 24 h |  | inhibition | 16.4% |
| C=C(CC[C@]12O[C@H](C(=O)O)[C@@](O)(C(=O)O)[C@](C(=O)O)(O1)[C@H](OC(=O)/C=C/[C@@H](C)C[C@@H](C)CC)[C@H]2O)[C@@H](OC(C)=O)[C@H](C)Cc1ccccc1 |  | 10 µM, 24 h |  | cellular cholesterol reduction | 25% |

A few entries again:
| SMILES | test | setting | how to read | measurement | result |
| --- | --- | --- | --- | --- | --- |
| CC1(C(=O)Nc2ccc(OS(C)(=O)=O)cc2)c2ccccc2-c2ccccc21 | cell growth or viability, MTT | 100 µM, 24 h |  | inhibition | > 50% |
